Assay results gathered from unrelated publications.
Several values in a cell are separate wells, animals, samples, runs or records. Numbers after ± are the reported error.
UniProt P37231, sequence (whole entry, looked up): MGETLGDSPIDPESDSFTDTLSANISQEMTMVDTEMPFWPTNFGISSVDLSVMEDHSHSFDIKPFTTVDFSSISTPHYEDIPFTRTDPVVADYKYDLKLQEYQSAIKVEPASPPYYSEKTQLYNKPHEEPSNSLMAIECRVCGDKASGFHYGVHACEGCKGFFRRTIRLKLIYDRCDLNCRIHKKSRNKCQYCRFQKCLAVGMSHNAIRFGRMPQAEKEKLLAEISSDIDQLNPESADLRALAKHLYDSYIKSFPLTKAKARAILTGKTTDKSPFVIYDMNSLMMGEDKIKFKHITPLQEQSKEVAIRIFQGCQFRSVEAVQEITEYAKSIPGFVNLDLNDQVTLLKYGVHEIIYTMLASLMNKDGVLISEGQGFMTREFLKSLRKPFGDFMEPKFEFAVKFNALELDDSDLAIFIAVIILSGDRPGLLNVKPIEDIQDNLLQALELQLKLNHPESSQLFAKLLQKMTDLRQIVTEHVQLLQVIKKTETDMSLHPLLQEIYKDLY

| Structure (SMILES) | tested on | assay | system | setting | scale | measurement | result |
| --- | --- | --- | --- | --- | --- | --- | --- |
| C1=[N+]2CCCC[N+]3=Cc4ccc5[n]4[Au-]23[n]2c1ccc2-c1nc2ccccc2nc1-5.F[P-](F)(F)(F)(F)F | SNB-75 | NCI60 five-dose screen | – | – | – | TGI | 4.41 -log M |
| CCc1nnc(NC(=O)c2cccc(C(=O)Nc3nnc(CC)s3)n2)s1 | LDR | silenced CMV-GFP reporter derepression, qHTS | – | – | – | Emax | 136% |
| COc1ccc(CNc2ccc3c(c2)S(=O)(=O)C=C3)cc1 | A-172 | resazurin | – | 5 µM, 24 h | – | viability | 40% |
| COc1cc(N2CCN(C(=O)C3CCCN3)CC2)ccc1Nc1ncc(Cl)c(Nc2ccccc2P(C)(C)=O)n1 (stereo not shown) | Ba/F3 EML4-ALK | annexin V flow cytometry | – | concentration not given, 24 h | – | early apoptotic cells | 7.6% |
| [BH3-][P+]1(c2ccccc2)CCCCC1 | SW480 | ELISA | – | IC50, 72 h | – | IL-6 level | 2.9 ± 0.16 pg/mL |
| CN[C@H]1CCN(C(=O)c2c(C)cc(C(F)(F)F)nc2-c2ccnc3cc(CN4C(=O)C5C(C4=O)C5(C)C)sc23)C1 (stereo partly shown) | HT-29, fibroblast and PBMC co-culture | BioMAP CRC oncology system | – | 0.3 to 8.1 µM, 48 h | – | IL-17A secretion | decreased |
| CCCCCCCCCCCC(=O)N[C@@H](CO)C[C@@H](O)c1cccc(CCCCCC)c1 | HeLa | CERT activity, HPLC-MS/MS lipidomics, item: ceramide 22 | – | 1 µM, 24 h, not cell-number normalised | – | ceramide level | 1940 pmol/sample and 2520 pmol/sample and 1660 pmol/sample |
| Cc1ccc(/C=N/N=C(\S)Nc2cccc(S(=O)(=O)N(C)C)c2)o1 | LDR | silenced CMV-GFP reporter derepression, qHTS | – | – | – | Emax | 72% |
| COc1ccc2c(c1)OC1=C(C(=O)CCC1)C2c1c[nH]c2ccccc12 (stereo not shown) | mouse preadipocytes | qPCR, item: C/EBPα | – | IC20, 14 days, adipogenic induction | baseline: untreated cells | mRNA level | decreased |
| Cc1cc(NC2CCN(C)CC2)ccc1-c1cc2c(N3CCC[C@H](C(=O)Nc4cccc(Cl)c4)C3)ncnc2[nH]1 | NCI-H2228 | cell growth or viability, MTT | – | 0.04 µg/mL, 72 h | – | inhibition | 60.6% |
| CCn1nc(Cl)c2c1-c1cnc(N)c(c1)O[C@H](C)c1cc(F)ccc1-c1nn(C)cc1C2 | Ba/F3 EML4-ALK v1, no mutation | cell viability | – | – | – | Emax | 99.3% |
| CCN(C(=O)c1cc(F)ccc1Oc1nncnc1N1CCC2(C1)CN([C@H](CCCN(C)CCOC)C(C)C)C2)C(C)C | BXPC-3 | cell growth or viability | – | 7 days | – | GI50 | > 10000 nM |
| C(=N\Nc1nc(-c2ccccn2)nc2ccccc12)/c1ccccc1 | LDR | silenced CMV-GFP reporter derepression, qHTS | – | – | – | efficacy | 202% |
| Cc1cc(N2CCCCC2)ccc1-c1cc2c(N3CCC[C@H](C(=O)NCc4ccc(OC(F)(F)F)cc4)C3)ncnc2[nH]1 | NCI-H2228 | cell growth or viability, MTT | – | 1 µg/mL, 72 h | – | inhibition | 76.9% |
| Cc1c(Cc2cccc(OC(C(=O)O)C(C)C)c2)c2ccc(C(=O)NC(C)c3cccc(C(C)(C)C)c3)cc2n1C (mixture of isomers) | PPARG (Homo sapiens, UniProt P37231) | ligand displacement, TR-FRET | – | – | – | IC50 | 381 nM |
| COC(=O)c1cc(NC2=NC(=O)C(=Cc3ccc(N(C)C)cc3)S2)ccc1OC(C)=O | MCF7 | item: RAD17 mRNA | – | 0.81 µM (IC50), 24 h | baseline: DMSO | fold change | 0.3 |
| CN1CCN(C(=O)c2ccc(-c3cc4c(N5CCC[C@H](C(=O)NCc6ccc(OC(F)(F)F)cc6)C5)ncnc4[nH]3)cc2)CC1 | NCI-H2228 | cell growth or viability, MTT | – | 5 µg/mL, 72 h | – | inhibition | 87.6% |
| COC1CN([C@H]2CC[C@H]([C@@]3(C)Oc4c(Cl)cc(C(=O)NCc5c(SC)cc(C)[nH]c5=O)c(C)c4O3)CC2)C1 | – | RNA-seq, item: DUSP8 | human, whole blood | dose not given, 24 h | baseline: pretreatment baseline | log2 fold change | 1.74 |
| Cc1sc2c(c1C)C(c1ccc(Cl)cc1)=N[C@@H](CC(=O)NCC(=O)N1CCC3(CCC(C(=O)N4CCN(C(=O)c5cc(Cc6n[nH]c(=O)c7ccccc67)ccc5F)CC4)CC3)CC1)c1nnc(C)n1-2 | NCI-H82 | – | – | 100 nM, 24 h | – | cells in S phase | 77% |
| CC(C)c1ccc(N(C)c2ccc3c(c2)OCC[C@H]3CNc2cnccc2C(=O)O)cc1 | KYSE-510 | cell viability, CellTiter-Glo | – | 7 days | – | IC50 | 3.4 nM |
| O=C(C[Se]C(=O)c1ccccc1Nc1cccc(C(F)(F)F)c1)Nc1cccc(C(F)(F)F)c1 | NCI60 renal subpanel | cell growth, inhibitor | – | five-dose | – | GI50 | 1890 nM |
| COc1cccc(OC)c1-c1cc(C(=O)NC2(C(=O)O)C3CC4CC(C3)CC2C4)nn1-c1ccc(C(=O)N(C)CCOCCN(C)C(=O)[C@H](CCCCNC(=O)[C@H](CC(C)C)NC(=O)C2OC2C(=O)O)NC(=O)CN2CCN(CC(=O)[O-])CCN(CC(=O)[O-])CCN(CC(=O)[O-])CC2)cc1C(C)C.[177Lu+3] (mixture of isomers) | HT-29 | – | – | concentration not given, 30 min | baseline: added activity | internalized fraction | 2.69 ± 0.2% |
| C[C@H](NC(=O)CN)C(=O)NCC(=O)N[C@@H](C)C(=O)N[C@@H](C)C(=O)NCC(=O)NCC(=O)N[C@@H](C)C(=O)NCC(=O)NCC(=O)NCC(=O)NCC(=O)NCC(=O)NCC(=O)NCC(=O)N[C@@H](CCCCNC(=O)CCCC[C@@H]1SC[C@@H]2NC(=O)N[C@@H]21)C(N)=O | HEK293T-GFP cells | flow cytometry | – | concentration not given, with: biotin-labelled peptide | – | binding rate | 0.56% and 0.59% and 0.49% |

| Structure (SMILES) | tested on | assay | system | setting | scale | measurement | result |
| --- | --- | --- | --- | --- | --- | --- | --- |
| CCN(CC)CC(=O)Nc1cccc(-n2cc(-c3ccc4ccc(-c5cn(-c6cccc(NC(=O)CN(CC)CC)c6)nn5)cc4c3)nn2)c1 | RCC4 | PCR angiogenesis array, item: TIE1 | – | 5 x IC50, 4 h, normoxia | baseline: untreated | fold regulation | -1 fold |
| Cc1cc(NC2CCN(C)CC2)ccc1-c1cc2c(N3CCC[C@H](C(=O)Nc4ccc(C(F)(F)F)cc4)C3)ncnc2[nH]1 | NCI-H2228 | cell growth or viability, MTT | – | 0.008 µg/mL, 72 h | – | inhibition | 52.2% |
| C=CC(=O)N1CCCC(n2c(=O)c3ncccc3n(Cc3ccc(Oc4ccccc4)cc3)c2=O)C1 (stereo not shown) | SSK41 | cell growth or viability, MTT | – | 72 h | – | IC50 | 2500 nM |
| Cc1ncsc1-c1ccc(C(C)NC(=O)C2CC(O)CN2C(=O)C(NC(=O)CCCCCCCCCCN2CCCC(Nc3ncc(Cl)c(Nc4ccccc4S(=O)(=O)C(C)C)n3)C2)C(C)(C)C)cc1 (stereo not shown) | 22Rv1 | RNA-seq, item: RBBP8NL mRNA | – | concentration not given | baseline: DMSO | log2 fold change | -1.8 |
| Cc1cc(NC2CCN(C)CC2)ccc1-c1cc2c(N3CCC[C@H](C(=O)Nc4ccc(C#N)cc4)C3)ncnc2[nH]1 | NCI-H2228 | cell growth or viability, MTT | – | 0.008 µg/mL, 72 h | – | inhibition | 55.3% |
| Cn1ncc2cc(-c3cncc(Cl)c3N3CCC4(CCNC4=O)CC3)ccc21 | LS174T | gene expression, microarray, item: DIO2 mRNA | – | concentration not given, 24 h | baseline: untreated cells | log2 fold change | -2.43 |
| O=C(NCc1ccc(OC(F)(F)F)cc1)[C@H]1CCCN(c2ncnc3[nH]c(-c4cc(F)c(F)c(F)c4)cc23)C1 | NCI-H2228 | cell growth or viability, MTT | – | 1 µg/mL, 72 h | – | inhibition | 33.2% |
| Cc1c(Cc2ccc(OC(C)C(=O)O)cc2)c2ccc(C(=O)NC(C)c3ccc(C(F)(F)F)cc3)cc2n1C (mixture of isomers) | Peroxisome proliferator-activated receptor gamma, ligand-binding domain (PPARG, Homo sapiens, UniProt P37231) | reporter gene, luciferase reporter | HEK293T, Gal4-PPARγ LBD | – | – | IC50 | 5370 nM |
| CO[C@@H]1[C@@H](OC(N)=O)[C@@H](O)[C@H](Oc2ccc3c(O)c(NC(=O)c4ccc(O)c(CC=C(C)C)c4)c(=O)oc3c2C)OC1(C)C | DLD-1 BRCA2-/- | – | – | 100 µM, mean of replicates A, B | baseline: untreated | colony survival | 0.326% |
| CCN(CC)CCCNC(=O)CSc1c2c(nc3cc(Cl)ccc13)CCCC2 | LDR | silenced CMV-GFP reporter derepression, qHTS | – | – | – | efficacy | 63% |
| Cc1ccc(-n2cc(CSc3nc4ccccc4n3Cc3cn(-c4ccc(C)cc4)nn3)nn2)cc1 | MDA-MB-231 | MTT | – | 500 ppm | – | cytotoxicity | 93.4% |
| Cc1nn(C)cc1-c1cc2c(N3CCC[C@H](C(=O)NCc4ccc(OC(F)(F)F)cc4)C3)ncnc2[nH]1 | NCI-H2228 | cell growth or viability, MTT | – | 5 µg/mL, 72 h | – | inhibition | 80.8% |
| COc1ccccc1-c1ccncc1C(=O)Nc1nnc(OCc2ccc(Cl)cc2)s1 | DLD-1 BRCA2-/- | – | – | 0.5 µM, single replicate | – | colony count | 38 and 35 and 19 and 22 and 43 and 39 |
| Cc1cc(Cl)cc(-c2ccnc3cc(CN4C(=O)C5C(C4=O)C5(C)C)sc23)c1C[C@@H]1CNCCO1 (stereo partly shown) | CHP-212 parental (wild-type USP7) | PI flow cytometry | – | 1 µM, 24 h | – | cells in G2/M phase | 14.3% and 10.1% and 17.4% |
| COc1cccc(/C=N/Nc2nc(Nc3ccccc3)nc(-n3nc(C)cc3C)n2)c1O | LDR | silenced CMV-GFP reporter derepression, qHTS | – | – | – | Emax | 83% |
| CCc1ccc(OCc2nnc(SC3CCCC3=O)n2C(C)c2ccccc2)cc1 (stereo not shown) | HEK293T | Wnt Super-TOPFlash reporter, inhibitor | – | 10 µM, 24 h, viability-normalized | – | inhibition | 70.5% |
| CC(=O)Oc1ccccc1C(=O)[Se]CC(=O)Nc1cccc(C(F)(F)F)c1 | NCI60 renal subpanel | total growth inhibition, inhibitor | – | five-dose | – | mean TGI | 3590 nM |
| CN1CCCNC(=O)c2cccc(c2)C(=O)NCCCN(C)CCCNc2cccc3c2C(=O)c2cccc(c2C3=O)NCCC1 | SAS | RNA-Seq, item: ZNF596 mRNA | – | 1 µM, 6 h | baseline: untreated cells | log2 fold change | 2.41 |
| Cc1c(Cl)cccc1Nc1ccccc1C(=O)[Se]CC(=O)Nc1cccc(C(F)(F)F)c1 | NCI60 renal subpanel | cell growth | – | 10 µM, 48 h, one-dose | – | mean growth percent | -82.3% |
| CNS(=O)(=O)Nc1nccc(Cc2c(C)c3ccc(Oc4ncccc4F)cc3oc2=O)c1F | DoTc2 4510 | cell viability, CellTiter-Glo | – | 7 days | – | IC50 | 9.78 nM |
| Cc1cc(NC2CCN(C)CC2)ccc1-c1cc2c(N3CCC[C@H](C(=O)N[C@H](C)c4ccccc4)C3)ncnc2[nH]1 | NCI-H2228 | cell growth or viability, MTT | – | 0.2 µg/mL, 72 h | – | inhibition | 77.2% |
| O=C(C[Se]C(=O)c1ccc2ccccc2c1)Nc1cccc(C(F)(F)F)c1 | NCI60 renal subpanel | cell growth | – | 10 µM, 48 h, one-dose | – | mean growth percent | -82.8% |
| COc1ccc2c(-c3ccc(O)c(C)c3)ccnc2c1 | HEK-Blue TLR8 cells | TLR8 activation | – | 80 nM, with: ssRNA40 2.5 µg/mL | – | inhibition | inhibited |

A few entries again:
| Structure (SMILES) | tested on | assay | system | setting | scale | measurement | result |
| --- | --- | --- | --- | --- | --- | --- | --- |
| Cc1cc(N2CCCCC2)ccc1-c1cc2c(N3CCC[C@H](C(=O)NCc4ccc(OC(F)(F)F)cc4)C3)ncnc2[nH]1 | NCI-H2228 | cell growth or viability, MTT | – | 1 µg/mL, 72 h | – | inhibition | 76.9% |
| COc1cc(N2CCN(C(=O)C3CCCN3)CC2)ccc1Nc1ncc(Cl)c(Nc2ccccc2P(C)(C)=O)n1 (stereo not shown) | Ba/F3 EML4-ALK | annexin V flow cytometry | – | concentration not given, 24 h | – | early apoptotic cells | 7.6% |
